Measurements from different studies.
A part holds a random share of what one study measured. Changes are numbered by the printed parent chain.

Sample 1 — technique: protein binding microarray; form: double-stranded DNA, one strand shown; medium: in vitro; concentration: not given; baseline: not given; direction: higher = stronger binding
Target: Histone acetyltransferase KAT6A, winged helix 2, GST fusion (KAT6A, Homo sapiens, UniProt Q92794, residues 85-181)
Notes: 8-mer, flanks averaged, mean of 2 arrays, mostly near background
Target sequence (chain): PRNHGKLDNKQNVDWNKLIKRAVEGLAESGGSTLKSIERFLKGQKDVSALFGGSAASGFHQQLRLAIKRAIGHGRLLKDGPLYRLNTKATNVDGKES
With `CTTCCAAA` the E-score was 0.0968.
With `GGTCGTGA` the E-score was 0.0471.
`CCCATGCG` gave an E-score of -0.0644.
`GCATGAGA` gave an E-score of -0.000665.
For `ACCTGAGC`, the E-score was 0.00942.
`GATGACAC` has an E-score of 0.0141.
With `AACGGTCC` the E-score was -0.1.
`CCTGCAAA` gave an E-score of 0.0526.
The E-score of `CGCTCTGA` is reported as 0.0673.
For `GGAAGTAC`, the E-score was -0.124.
With `ATACAAGC` the E-score was 0.0392.
With `AAGTCAAT` the E-score was -0.14.
`CGATTCCG` has an E-score of -0.0869.
`CGTTAGTC` has an E-score of -0.114.
The E-score of `AACGCGCC` is reported as 0.135.
With `ATTTGCAG` the E-score was 0.00387.
`GAGCACTC` gave an E-score of -0.0122.
`TCATGAAA` has an E-score of -0.0394.
For `CCTAGGCA`, the E-score was -0.107.
`CTAATCTA` gave an E-score of 0.0622.
With `CTTCCGTA` the E-score was -0.142.
`GGAGACCA` gave an E-score of -0.0252.
`CAGATACA` has an E-score of -0.0548.
For `CCGCCCCC`, the E-score was 0.174.
For `CTGCCAAA`, the E-score was 0.0687.

Sample 2 — technique: DHFR PCA, deep sequencing; medium: yeast; with: (+)-ABA 0.11 µM; baseline: wild-type fitted maximum; direction: higher = stronger binding
Target: ABI1, truncated, D143A, DHFR fusion (Arabidopsis thaliana)
Notes: methotrexate growth selection, single substitutions
Starting sequence: PYL1, truncated, DHFR fusion (Arabidopsis thaliana); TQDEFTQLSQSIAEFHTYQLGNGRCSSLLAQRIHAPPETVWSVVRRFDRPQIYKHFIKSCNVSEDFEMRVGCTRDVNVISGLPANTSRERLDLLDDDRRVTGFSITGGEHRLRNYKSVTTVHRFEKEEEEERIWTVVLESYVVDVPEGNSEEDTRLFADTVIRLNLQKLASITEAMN
For `T1A`, “relative binding score” read 30.8%.
`V143W` — result for “relative binding score”: -5.15%.
`R132Q`: “relative binding score” 52.7%.
Under “relative binding score”, `S117F` is recorded as -5.05%.
Under “relative binding score”, `G81R` is recorded as -1.42%.
`N22A`: “relative binding score” 46.9%.
Under “relative binding score”, `R49S` is recorded as 22.7%.
For `E67R`, “relative binding score” read 16.5%.
`A158D`: “relative binding score” 0.988%.
For `A13M`, “relative binding score” read 21.7%.
`L164Q`: “relative binding score” 12.5%.
`F66P` — result for “relative binding score”: -4.11%.
For `L112I`, “relative binding score” read -0.996%.
Under “relative binding score”, `R74T` is recorded as 0.187%.
`P146H`: “relative binding score” 0.591%.
For `T86H`, “relative binding score” read 23.9%.
`D65M` — result for “relative binding score”: 8.15%.

Sample 3 — technique: RNA Bind-n-Seq; form: RNA; medium: in vitro; concentration: not given; baseline: input RNA pool; direction: higher = stronger binding
Target: RING finger protein unkempt homolog, zinc fingers 1-6, GST-SBP tag (UNK, Homo sapiens, UniProt Q9C0B0, residues 30-357)
UniProt Q9C0B0, sequence (30-357, looked up): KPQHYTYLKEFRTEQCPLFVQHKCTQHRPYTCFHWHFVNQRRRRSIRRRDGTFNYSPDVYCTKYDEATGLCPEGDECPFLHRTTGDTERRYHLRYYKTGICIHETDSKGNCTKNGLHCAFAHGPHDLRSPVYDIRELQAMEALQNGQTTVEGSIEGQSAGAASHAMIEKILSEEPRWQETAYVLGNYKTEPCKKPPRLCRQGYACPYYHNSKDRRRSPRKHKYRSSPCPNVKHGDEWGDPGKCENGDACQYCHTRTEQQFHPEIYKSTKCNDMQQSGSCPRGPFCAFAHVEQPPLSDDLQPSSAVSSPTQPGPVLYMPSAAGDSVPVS
Notes: RNA with constant flanks, human and mouse sites, ends assumed
Constant ends, left off below: GGGAGUUCUACAGUCCGACGAUC … CAACAGAGGAUUGAGCAUCA
`UGAGCUGCCGAAGCCGCCGUCCUGCUCUCCCGCGUGGGCUUCUCUAAUUCCAUUGUUUUUUUUAGAUUCUCUCGGGCCUAGCCGUCCUUGGAACCCGAUAUUCGGGCUGGGCGGUUCCGC` has a bound/input enrichment of 0.416 ratio.
`ACCCCCCUCUUUCUCCUUGGCUGCAGUGGGGCCUUUAUCCAGUGCCAGGGAGGAACAACAUAGUUAAUUUUUUUCUAACCUUGCCACUUUGAGGGAAGGAAGGGUUGGGGGAAGGGCAAG` gave a bound/input enrichment of 4.28 ratio.
The bound/input enrichment of `CGCCUACUCGGGGGAGGAACUUAAAGGGCCGGCUGUUUCGGCGGCCGCGGGAUGCCCCUGCGCUGACCGCCAGGGGCAGGUGCCCGCCCGCGUAGACGCACCCGGCCUGACCCCGCGCCA` is reported as 0.168 ratio.
`CGAAUGUUUGCUUACUUCCGACGCAACGCGGCCACGUGGAAGAAUGCAGUGCGUCAUAAUCUUAGUCUUCACAAGUGUUUUGUGCGAGUAGAAAACGUUAAAGGGGCAGUAUGGACAGUG` gave a bound/input enrichment of 4.77 ratio.
The bound/input enrichment of `AAUGAGCAGCAGAGACUGAGAACCACUGAAGUACACAGUUGGAAGCUGGUGCUGAAAAAAUUAAGAGUUUUGCUGUUAACUCCUUAAGAGGGCUUUAAAGCCUUUUAUAUUAAGUGCCAU` is reported as 0.195 ratio.
The bound/input enrichment of `UAUCCAAAUCUAAACAUGAUUGAGACAUUCAUAUGUCAAGUGUGUGAGGAAACCCUUGCACAUAGUGUGGAUUCCCUUGAGCAGCUGACUGGAAUAAGGAUGCUUAGACACCUCACUAUG` is reported as 0.264 ratio.
`UCAGUUCUCAGGUUGGGACUUUACUUAUUGCUGCAGAACAGGAAAGGUUAGAGAGUAAGACUUCAGAAUUUAUUGAGAUUGUUGUUGUUCAAACAUUUUAUAUUAGAAUUGACAUGUAAA` gave a bound/input enrichment of 0.778 ratio.
`CUAACGAACUUUACACUCCUGAUGCCAGCAGUAUCCGUUGGAAAUGUUGGCCAGCUUGCAAUAGAUCUGAUUAUUUCUACACUGAACAUGUGUAAGAUUGGUUAUUUCUAUACUGAUUGC` has a bound/input enrichment of 0.0631 ratio.

Sample 4 — technique: protein-binding microarray; form: double-stranded DNA, one strand shown; medium: in vitro; concentration: 250 nM; notes: 60-bp whole probe; with: salmon DNA 0.4 mg/ml; baseline: random background probes; direction: higher = stronger binding; constant ends, left off below: GCCTAGCAC … GTCTTGATTCGCTTGACGCTGCTG
Target: Interferon regulatory factor 5, full length, phosphomimetic (IRF5, Homo sapiens, UniProt Q13568-2, residues 1-514, K96S/S451D/S453D/S456D/S462D)
The log fluorescence of `TTAGGTATCGACTATCGGTTCGTGCTA` is reported as 7.3 z-score.
`TTAGGTCTCCTTTTCCTATAGTGCTAG` gave a log fluorescence of 0.543 z-score.
For `TCAGAGCTCTGTCTGGGACTGTGCTAG`, the log fluorescence was -0.388 z-score.
For `GACGGTATAGGGTATCGGGACGTGCTA`, the log fluorescence was 0.516 z-score.
`TTAGGTTTCGGGTATAGGTTAGTGCTA` has a log fluorescence of 8.46 z-score.
With `CACGAACTGGGGTTTCGAGACGTGCTA` the log fluorescence was 0.917 z-score.
The log fluorescence of `GACGTTATCGGGTATCGGGACGTGCTA` is reported as 3.45 z-score.
The log fluorescence of `TTAGGTATCCACTTTCGGTTAGTGCTA` is reported as 10.2 z-score.
For `GACGGTATCGGGTTTCGGAACGTGCTA`, the log fluorescence was 5.19 z-score.
For `TTAGATCTGGGGTATCGATTAGTGCTA`, the log fluorescence was 2.11 z-score.
For `TTAGGTTCCGGTATCGGTTAGTGCTAG`, the log fluorescence was 6.49 z-score.
For `TTAGATTTCGAGACTGGATTAGTGCTA`, the log fluorescence was 1.81 z-score.
`TTAGGTTCCCTTCTCCTTTAGTGCTAG` gave a log fluorescence of 0.545 z-score.
`TCATTTTTTTCCCTGAAACTGTGCTAG` has a log fluorescence of 1.28 z-score.
The log fluorescence of `TTAGGTTTTGGGTATCGGTTAGTGCTA` is reported as 4.53 z-score.
The log fluorescence of `TTAGGACTGCTTAACCTTTAGTGCTAG` is reported as -0.213 z-score.
`TTAGATCTCAGTTCCGATTAGTGCTAG` gave a log fluorescence of 0.999 z-score.
With `TCAGGTCTCGGACTGGGTTAGTGCTAG` the log fluorescence was -0.462 z-score.
With `TCACTCTTCCTTTACTTACTGTGCTAG` the log fluorescence was 1.07 z-score.

A few entries again (sample 3):
`UGAGCUGCCGAAGCCGCCGUCCUGCUCUCCCGCGUGGGCUUCUCUAAUUCCAUUGUUUUUUUUAGAUUCUCUCGGGCCUAGCCGUCCUUGGAACCCGAUAUUCGGGCUGGGCGGUUCCGC` has a bound/input enrichment of 0.416 ratio.
`ACCCCCCUCUUUCUCCUUGGCUGCAGUGGGGCCUUUAUCCAGUGCCAGGGAGGAACAACAUAGUUAAUUUUUUUCUAACCUUGCCACUUUGAGGGAAGGAAGGGUUGGGGGAAGGGCAAG` gave a bound/input enrichment of 4.28 ratio.
The bound/input enrichment of `CGCCUACUCGGGGGAGGAACUUAAAGGGCCGGCUGUUUCGGCGGCCGCGGGAUGCCCCUGCGCUGACCGCCAGGGGCAGGUGCCCGCCCGCGUAGACGCACCCGGCCUGACCCCGCGCCA` is reported as 0.168 ratio.
`CGAAUGUUUGCUUACUUCCGACGCAACGCGGCCACGUGGAAGAAUGCAGUGCGUCAUAAUCUUAGUCUUCACAAGUGUUUUGUGCGAGUAGAAAACGUUAAAGGGGCAGUAUGGACAGUG` gave a bound/input enrichment of 4.77 ratio.
The bound/input enrichment of `AAUGAGCAGCAGAGACUGAGAACCACUGAAGUACACAGUUGGAAGCUGGUGCUGAAAAAAUUAAGAGUUUUGCUGUUAACUCCUUAAGAGGGCUUUAAAGCCUUUUAUAUUAAGUGCCAU` is reported as 0.195 ratio.
The bound/input enrichment of `UAUCCAAAUCUAAACAUGAUUGAGACAUUCAUAUGUCAAGUGUGUGAGGAAACCCUUGCACAUAGUGUGGAUUCCCUUGAGCAGCUGACUGGAAUAAGGAUGCUUAGACACCUCACUAUG` is reported as 0.264 ratio.
`UCAGUUCUCAGGUUGGGACUUUACUUAUUGCUGCAGAACAGGAAAGGUUAGAGAGUAAGACUUCAGAAUUUAUUGAGAUUGUUGUUGUUCAAACAUUUUAUAUUAGAAUUGACAUGUAAA` gave a bound/input enrichment of 0.778 ratio.
`CUAACGAACUUUACACUCCUGAUGCCAGCAGUAUCCGUUGGAAAUGUUGGCCAGCUUGCAAUAGAUCUGAUUAUUUCUACACUGAACAUGUGUAAGAUUGGUUAUUUCUAUACUGAUUGC` has a bound/input enrichment of 0.0631 ratio.
